Published values pooled from the literature.
Compare with care: the assays were run in different laboratories. Values joined by “and” are separate records of one study, mostly repeats; a detail may differ. ± marks the error that the study gave. Non-standard residues stand in square brackets, D forms with d. Square brackets hold non-standard residues; d marks the D form. Primed or numbered codes have the meaning given here. Where no end group is shown, it is not given here. Ends that are not written are not given here. No end group written: not given here. [ ]: non-standard residue; d: D form. * marks the point of attachment.
B1: DNA polymerase beta 339-575 (Thermus thermophilus, UniProt Q5SJ64); sequence looked up; chain GDLQVHSTYSDGQNTLEELWEAAKTMGYRYLAVTDHSPAVRVAGGPSPEEALKRVGEIRRFNETHGPPYLLAGAEVDIHPDGTLDYPDWVLRELDLVLVSVHSRFNLPKADQTKRLLKALENPFVHVLAHPTARLLGRRAPIEADWEAVFQKAKEKGVAVEIDGYYDRMDLPDDLARMAYGMGLWISLSTDAHQTDHLRFMELAVGTAQRAWIGPERVLNTLDYEDLLSWLKARRGV
B2: SFN 1-231 (Homo sapiens, UniProt P31947); chain MERASLIQKAKLAEQAERYEDMAAFMKGAVEKGEELSCEERNLLSVAYKNVVGGQRAAWRVLSSIEQKSNEEGSEEKGPEVREYREKVETELQGVCDTVLGLLDSHLIKEAGDAESRVFYLKMKGDYYRYLAEVATGDDKKRIIDSARSAYQEAMDISKKEMPPTNPIRLGLALNFSVFHYEIANSPEEAISLAKTTFDEAMADLHTLSEDSYKDSTLIMQLLRDNLTLWT
B3: Mesd (Mus musculus, UniProt Q9ERE7); chain ADTPGEATPPPRKKKDIRDYNDADMARLLEQWEKDDDIEEGDLPEHKRPSAPIDFSKLDPGKPESILKMTKKGKTLMMFVTVSGNPTEKETEEITSLWQGSLFNANYDVQRFIVGSDRAIFMLRDGSYAWEIKDFLVSQDRCAEVTLEGQMYPGKGGGSKEKNKTKPEKAKKKEGDPKPRASKEDNRAGSRREDL
B4: enzyme (Bacillus pumilus, UniProt A8FFI9); chain EARSIAWSVDEFFKNREGTFVIQEVKEKSPWVYNKKRAKERFAPQSTFKVANALIGLQTGAVRDEYDIKYWDGVKREIDNWNRDHTLGSGMRDSVVWYYQAMARDIGEERMNHWVKAIHYGNKDISGGIDQFWLSSTLRISPIEQVRFLKQLYEETLPFDLKNMRTVKRMMVQEEEKHATLYGKTGSGSDIGWYVGFIKHEHKTYILATNIKGTGIEAKDITYRILKKYHLMEASV
B5: adcC/mCherry full length, C-terminal mCherry (Dictyostelium discoideum); sequence looked up; chain MTQRSLKINIIEGKDLKGLDSGGVSDCYVKFKCGPISAKTEVIKKSTSPIWNYMINIGNVEENTLLQFECFDWERIGNNRTMGKTQAFVSDLSSGAKRNLMDQWLRLDTKGFIRISYEFTPPYPLETESTNSPNLSVVGNGSSSSSSLMYNPTPVYFKPIFLPTIPSETINNNKSTTCHFLIPGSVYQTRPFVCGEFVNCSLVLNVFEARIVVRSLNLSFSGSITYKGKKQRKLVNDYRDLLLGFTGGVPVPNNNGNNNLTSNKVVLERGKHVFPFQFFIDKTCKSTVNLTDYKVNYYLSFHADIVNQPDISASQEIKVVNLEDTVYKQTISPINAQTSKSPLTGGNISISCKSVKNSFYPGEEIELEVEVNNSSKKKIKNVDIQLNKVEYDGTDVTGTSYQLLTMTKKFYPKIKQNTACKQMVVIELPSTTQCVGLIHSIAETKMIRVEYHLLVNLDIPSCVDLRLKLPITIVQPDPKFETLPNPLTEIGNLPRYVKDWSIKNFHSWVLFKKQCPDVMALNPEFYQYNLSGSDLMQLPTETLYSIFKGAGPRTQELVNDLQSQIFEIKLVRNFLKELQLSNLIDYFEKQTITWDILLQLNYNEIFSITDITIGDAKRIFLKIQQIQSERQKQQEQQEQQVVSNLEAVSLQKSE
Sequence of UniProt P35222 (whole entry, looked up): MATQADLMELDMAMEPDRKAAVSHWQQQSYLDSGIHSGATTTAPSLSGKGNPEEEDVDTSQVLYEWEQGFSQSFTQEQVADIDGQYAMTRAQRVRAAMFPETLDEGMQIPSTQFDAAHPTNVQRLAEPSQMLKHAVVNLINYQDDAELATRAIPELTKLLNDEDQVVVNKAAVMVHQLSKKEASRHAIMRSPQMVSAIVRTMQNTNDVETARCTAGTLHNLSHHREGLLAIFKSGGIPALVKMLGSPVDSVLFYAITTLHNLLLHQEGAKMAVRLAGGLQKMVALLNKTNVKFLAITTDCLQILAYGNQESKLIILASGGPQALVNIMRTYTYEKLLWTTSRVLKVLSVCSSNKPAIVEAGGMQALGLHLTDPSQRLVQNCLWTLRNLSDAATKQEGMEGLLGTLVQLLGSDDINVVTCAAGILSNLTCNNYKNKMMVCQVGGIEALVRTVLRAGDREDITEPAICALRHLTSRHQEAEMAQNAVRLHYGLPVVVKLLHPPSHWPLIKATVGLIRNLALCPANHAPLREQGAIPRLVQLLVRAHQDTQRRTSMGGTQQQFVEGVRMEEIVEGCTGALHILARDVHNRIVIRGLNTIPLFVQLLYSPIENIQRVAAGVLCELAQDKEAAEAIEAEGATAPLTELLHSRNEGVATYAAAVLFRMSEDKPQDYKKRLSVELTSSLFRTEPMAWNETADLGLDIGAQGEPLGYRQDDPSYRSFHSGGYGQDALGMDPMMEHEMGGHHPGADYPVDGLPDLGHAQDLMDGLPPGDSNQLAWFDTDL
Sequence of UniProt P61077 (whole entry, looked up): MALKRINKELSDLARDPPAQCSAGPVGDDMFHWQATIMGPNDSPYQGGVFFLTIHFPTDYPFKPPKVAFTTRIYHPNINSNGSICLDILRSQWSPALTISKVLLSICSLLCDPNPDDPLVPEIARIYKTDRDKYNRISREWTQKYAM
Sequence of UniProt P29597 (whole entry, looked up): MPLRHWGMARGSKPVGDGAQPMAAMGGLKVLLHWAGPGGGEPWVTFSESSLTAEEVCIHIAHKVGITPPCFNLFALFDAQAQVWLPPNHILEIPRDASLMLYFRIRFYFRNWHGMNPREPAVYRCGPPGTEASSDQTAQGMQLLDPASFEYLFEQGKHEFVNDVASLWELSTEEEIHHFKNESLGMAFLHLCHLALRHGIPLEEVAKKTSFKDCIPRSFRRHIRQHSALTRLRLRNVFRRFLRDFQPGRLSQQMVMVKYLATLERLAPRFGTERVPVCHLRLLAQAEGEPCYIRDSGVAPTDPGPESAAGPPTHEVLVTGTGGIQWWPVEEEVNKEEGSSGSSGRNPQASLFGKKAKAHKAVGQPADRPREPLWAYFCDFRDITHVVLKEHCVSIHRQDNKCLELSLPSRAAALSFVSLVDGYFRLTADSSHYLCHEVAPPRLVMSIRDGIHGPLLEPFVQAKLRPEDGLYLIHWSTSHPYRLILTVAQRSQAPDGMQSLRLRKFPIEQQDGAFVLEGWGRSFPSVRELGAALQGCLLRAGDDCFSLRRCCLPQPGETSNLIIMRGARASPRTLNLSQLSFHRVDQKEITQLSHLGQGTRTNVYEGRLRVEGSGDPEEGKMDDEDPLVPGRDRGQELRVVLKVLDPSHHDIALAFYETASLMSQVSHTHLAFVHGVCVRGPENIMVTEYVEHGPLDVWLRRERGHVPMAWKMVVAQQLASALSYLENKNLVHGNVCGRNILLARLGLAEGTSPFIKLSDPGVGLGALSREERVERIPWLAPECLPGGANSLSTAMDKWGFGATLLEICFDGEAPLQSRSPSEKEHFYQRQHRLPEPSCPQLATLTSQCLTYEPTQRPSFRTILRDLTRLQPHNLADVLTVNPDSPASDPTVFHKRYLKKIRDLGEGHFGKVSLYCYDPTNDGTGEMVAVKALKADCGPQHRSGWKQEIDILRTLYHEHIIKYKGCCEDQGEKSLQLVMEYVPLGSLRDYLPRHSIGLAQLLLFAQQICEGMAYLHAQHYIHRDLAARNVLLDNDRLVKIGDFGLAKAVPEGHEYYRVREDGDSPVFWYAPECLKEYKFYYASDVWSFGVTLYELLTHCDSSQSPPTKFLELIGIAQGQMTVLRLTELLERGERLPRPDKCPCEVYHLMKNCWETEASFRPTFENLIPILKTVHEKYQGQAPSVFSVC
Sequence of UniProt O75581 (whole entry, looked up): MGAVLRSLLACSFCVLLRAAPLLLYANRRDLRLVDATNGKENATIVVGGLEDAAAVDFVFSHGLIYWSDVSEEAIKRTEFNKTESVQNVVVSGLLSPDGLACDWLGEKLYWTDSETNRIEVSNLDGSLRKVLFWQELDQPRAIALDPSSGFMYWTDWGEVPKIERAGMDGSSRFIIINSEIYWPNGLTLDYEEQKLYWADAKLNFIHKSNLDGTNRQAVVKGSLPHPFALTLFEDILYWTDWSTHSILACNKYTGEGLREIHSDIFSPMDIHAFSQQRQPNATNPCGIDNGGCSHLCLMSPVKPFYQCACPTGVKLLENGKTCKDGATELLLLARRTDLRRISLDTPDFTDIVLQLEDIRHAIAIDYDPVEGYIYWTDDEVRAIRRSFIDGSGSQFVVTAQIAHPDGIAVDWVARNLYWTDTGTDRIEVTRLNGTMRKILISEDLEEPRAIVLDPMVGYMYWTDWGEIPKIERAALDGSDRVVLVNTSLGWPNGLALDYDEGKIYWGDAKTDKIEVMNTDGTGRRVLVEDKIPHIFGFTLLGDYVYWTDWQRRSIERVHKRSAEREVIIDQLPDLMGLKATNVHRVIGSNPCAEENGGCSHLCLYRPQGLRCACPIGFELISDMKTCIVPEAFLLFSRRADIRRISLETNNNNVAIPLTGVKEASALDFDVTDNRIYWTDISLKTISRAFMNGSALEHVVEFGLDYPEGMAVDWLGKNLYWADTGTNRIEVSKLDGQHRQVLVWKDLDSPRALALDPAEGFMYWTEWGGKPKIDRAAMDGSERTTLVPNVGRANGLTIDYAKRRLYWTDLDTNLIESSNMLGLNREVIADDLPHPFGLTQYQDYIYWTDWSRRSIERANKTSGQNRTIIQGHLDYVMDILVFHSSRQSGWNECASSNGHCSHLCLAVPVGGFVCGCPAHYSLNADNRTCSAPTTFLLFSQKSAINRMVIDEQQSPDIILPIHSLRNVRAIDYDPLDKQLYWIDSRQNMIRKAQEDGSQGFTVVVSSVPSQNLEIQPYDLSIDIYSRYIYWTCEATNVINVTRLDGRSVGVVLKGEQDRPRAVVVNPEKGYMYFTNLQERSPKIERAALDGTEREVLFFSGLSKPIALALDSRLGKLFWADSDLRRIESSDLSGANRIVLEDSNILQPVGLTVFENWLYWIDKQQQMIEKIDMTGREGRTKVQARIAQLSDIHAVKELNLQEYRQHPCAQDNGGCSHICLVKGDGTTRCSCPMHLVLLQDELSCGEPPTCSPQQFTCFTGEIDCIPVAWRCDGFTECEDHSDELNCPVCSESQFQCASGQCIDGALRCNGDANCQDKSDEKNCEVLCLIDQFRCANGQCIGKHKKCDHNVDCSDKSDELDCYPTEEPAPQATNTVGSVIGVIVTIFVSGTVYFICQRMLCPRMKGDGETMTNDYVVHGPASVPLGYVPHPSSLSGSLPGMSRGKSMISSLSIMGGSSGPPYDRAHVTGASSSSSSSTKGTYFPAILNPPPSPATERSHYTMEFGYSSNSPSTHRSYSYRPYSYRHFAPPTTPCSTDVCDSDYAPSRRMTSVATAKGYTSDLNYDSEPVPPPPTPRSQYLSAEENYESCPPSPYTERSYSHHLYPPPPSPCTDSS
Sequence of UniProt P06400 (whole entry, unmodified, looked up): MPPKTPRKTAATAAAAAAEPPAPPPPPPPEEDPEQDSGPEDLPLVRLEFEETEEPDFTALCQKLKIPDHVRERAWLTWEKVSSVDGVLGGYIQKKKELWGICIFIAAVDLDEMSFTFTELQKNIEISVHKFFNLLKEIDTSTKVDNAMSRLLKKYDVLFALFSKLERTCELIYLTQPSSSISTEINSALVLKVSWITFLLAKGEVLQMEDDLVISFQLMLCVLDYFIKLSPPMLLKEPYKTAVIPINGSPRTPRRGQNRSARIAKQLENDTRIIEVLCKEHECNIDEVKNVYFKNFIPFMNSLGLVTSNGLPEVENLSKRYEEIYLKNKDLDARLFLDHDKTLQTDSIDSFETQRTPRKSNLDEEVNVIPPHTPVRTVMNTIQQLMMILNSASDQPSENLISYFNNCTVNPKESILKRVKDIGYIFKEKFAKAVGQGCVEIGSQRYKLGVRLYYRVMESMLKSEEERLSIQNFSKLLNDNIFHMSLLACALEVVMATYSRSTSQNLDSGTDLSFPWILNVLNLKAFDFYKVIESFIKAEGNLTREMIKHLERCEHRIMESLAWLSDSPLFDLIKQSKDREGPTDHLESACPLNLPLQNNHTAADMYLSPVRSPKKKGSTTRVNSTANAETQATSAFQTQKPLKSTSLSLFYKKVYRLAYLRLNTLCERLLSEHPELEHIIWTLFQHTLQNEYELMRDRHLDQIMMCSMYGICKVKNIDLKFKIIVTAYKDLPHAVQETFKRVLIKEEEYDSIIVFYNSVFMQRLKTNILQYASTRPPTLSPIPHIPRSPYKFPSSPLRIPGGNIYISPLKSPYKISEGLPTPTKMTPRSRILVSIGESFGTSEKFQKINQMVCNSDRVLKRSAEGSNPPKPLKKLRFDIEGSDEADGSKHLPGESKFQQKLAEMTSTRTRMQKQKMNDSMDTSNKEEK
Sequence of UniProt P13773 (whole entry, looked up): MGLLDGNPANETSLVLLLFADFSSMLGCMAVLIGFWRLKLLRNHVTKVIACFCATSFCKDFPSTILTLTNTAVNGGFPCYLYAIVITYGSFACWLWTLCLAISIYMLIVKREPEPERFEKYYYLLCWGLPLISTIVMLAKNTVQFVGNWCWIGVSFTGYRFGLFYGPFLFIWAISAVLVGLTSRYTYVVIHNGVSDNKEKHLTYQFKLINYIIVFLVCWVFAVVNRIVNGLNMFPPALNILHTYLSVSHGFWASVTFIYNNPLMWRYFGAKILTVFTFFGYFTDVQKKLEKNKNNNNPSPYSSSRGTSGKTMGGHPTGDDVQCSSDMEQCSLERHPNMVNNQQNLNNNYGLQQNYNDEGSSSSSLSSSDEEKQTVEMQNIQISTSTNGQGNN

Tnfrsf11b CRD (Mus musculus)
relative on-rate (Tnfsf11 162-316 (Mus musculus, UniProt O35235-1); SPR; baseline: RANK, higher = faster association): 30 fold

B1 (DNA polymerase beta 339-575)
fold change in peak absorbance (DNA polymerase beta 1-379 (Thermus thermophilus, UniProt Q5SJ64); SEC; pH 8.0, 37 °C, KCl 100 mM, together with: dNTPs 10 µM; baseline: without dNTPs, higher = more complex): 1.1 fold

GCGGACGGACAGAGAGUGCAACCUGCCGUGCCGC (ssRNA; 2'-F pyrimidines, 5' thiol-C6)
Kd (ITGA5/ITGB1 on cells (Mus musculus); flow cytometry; MB49-Luc; apparent, no added Mg2+/Ca2+, not purified): 245 ± 58.1 nM

B2 (SFN 1-231)
molecule per partner (MAPT PKA phosphorylated S214A/S409A/S416A, pS324, pS356 (UniProt P10636-8); cross-linking): 2 14-3-3 per Tau and 1 14-3-3 per Tau

CCND1/CDK4 fusion, linker (Homo sapiens)
Rb phosphorylation (RB1 F897A/L901A/R908A (Homo sapiens, UniProt P06400); in vitro kinase assay; baseline: wild-type Rb, higher = greater difference): 30 fold

Crebbp fragment (Mus musculus)
percentage recovery (AKT1 T308D/S473D (Homo sapiens, UniProt P31749); pull-down): 1.67 ± 0.67%

GAGUUGAGUUGAGUUGAGUUGAGUUGAGUUGAGUUGAGUUGAGUUGAGUUGAGUU (ssRNA; single strand)
Kd (mtrB full length assumed K56A (Bacillus subtilis, UniProt P19466); filter binding; together with: L-tryptophan 1 mM): 35 ± 4 nM

B3 (Mesd)
migration inhibition (LRP6 (Homo sapiens, UniProt O75581); transwell assay; MDA-MB-231, BT549; 2 µM, 4 µM): 85 % inhibition

GRGDS-NH2 (GRGDS peptide; C-terminal amide)
IC50 (ITGAV/ITGB3; competition with ligand, ELISA; peptide; pH 7.6): 294 ± 114 nM

LCMT1 fragment T29V (Homo sapiens)
inhibition efficacy (PPP2R1A/PPP2CA A-C core dimer 1-589 (Homo sapiens); phosphatase activity, inhibitor; baseline: wild type LCMT-1, higher = stronger inhibition): 4 fold

UBE2D3 (Homo sapiens, UniProt P61077)
reduction of isopeptide formation (MYCBP2 4378-4640 C4520K/F4394A (Homo sapiens); E2-E3 isopeptide formation; single turnover): 30 % reduction

PHF1 fragment (Homo sapiens) (sequence not shown)
ΔH (H3 fragment, K27me3; ITC): -5140 ± 469 cal/mol

Gphn E domain , monomeric
fluorescence lifetime (ARHGEF9 1-456, CB2-SH3+, FlAsH on tetra-cysteine motif (rat); CFP donor lifetime, time-resolved fluorescence; 1 µM, pH 8, NaCl 250 mM, together with: ligand 100 µM): 1.78 ns

B4 (enzyme)
kcat (CC1(C)S[C@@H]2[C@H](NC(=O)[C@H](C(=O)O)c3ccsc3)C(=O)N2[C@H]1C(=O)O; steady-state kinetics; pH 7): 39 ± 2 s⁻¹

KATGAA[pT]PKKSAKW (histone H1.4 residues 139-151 (Homo sapiens); pT145; pT = C[C@@H](OP(=O)(O)O)[C@H](N)C(=O)O)
exchange rate constant (PIN1 (Homo sapiens, UniProt Q13526); EXSY NMR; peptide; 1 mM peptide, 25 °C): 5.5 s⁻¹

IL2 N90R/V91R/T131R (Homo sapiens)
pSTAT5+ CD8 T cells (IL2RB (Homo sapiens, UniProt P14784); flow cytometry; human PBMCs; baseline: wildtype IL2, higher = greater reduction): 100 fold

ACTC1 R312C (x)
frictional load (heavy meromyosin HMM (Oryctolagus cuniculus); in vitro motility assay; model fit, together with: alpha-actinin): 336 pN

CALM1 T26C, Alexa Fluor 568 at C26 (sequence not shown)
donor fluorescence lifetime (Camk2d T287A (Rattus norvegicus); FRET; 500 nM): 2.32 ns

ETDKE[pY][pY]TVKD (JAK1 1029-1039; pY1034/pY1035; pY = N[C@@H](Cc1ccc(OP(=O)(O)O)cc1)C(=O)O)
molecule per partner (PTPN6 243-530 C453S (Homo sapiens, UniProt P29350); ITC; peptide; pH 8.0, 25 °C, NaCl 100 mM): 0.8

SERPINC1 R45E/R46E/K114E/R129E (Homo sapiens)
k2 (coagulation factor IXa; steady-state kinetics; room temperature, no heparin): 59 M⁻¹ s⁻¹

BCL9 HD2 helix, N-acetyl, hydrocarbon staple (Homo sapiens)
IC50 (CTNNB1 (Homo sapiens, UniProt P35222); competition with complex, pull-down): 135 nM

S. cerevisiae FACT complex
Kd (HTB1/HTA1 (Saccharomyces cerevisiae, UniProt P02293+P04911); ITC; first of two sites): 340 nM

Xrcc1 fragment (Mus musculus)
apparent Tm (LIG3 BRCT domain 836-921 (Homo sapiens); circular dichroism; heterodimer): 56.2 °C

{Cy5.5″}-TNYLFSPNGPIARAWK(DOTA)-NH2 (peptide; N-terminal Cy5.5, C-terminal DOTA; Cy5.5″ = near-infrared fluorescent dye Cy5.5; DOTA = O=C(O)CN1CCN(CC(=O)O)CCN(CC(=O)*)CCN(CC(=O)O)CC1)
koff (EPHB4 16-539 (Homo sapiens, UniProt P54760); SPR; peptide): 0.00187 s⁻¹

B5
co-precipitation increase (carA-1 (Dictyostelium discoideum, UniProt P13773); co-IP; membrane fractions; in cells, together with: cAMP 0 or 50 µM; baseline: unstimulated cells, higher = more co-precipitated): 2.5 fold

Ac-TASSEV-NH2 (PLCB3 residues 579-584, N-acetyl, C-amide (Homo sapiens); N-acetyl, C-amide)
reduction (PLCB3 (Homo sapiens, UniProt Q01970); ACh-induced Ca2+ response; peptide, HEK293; 100 µM, 1 h; baseline: vehicle, higher = stronger reduction): 39.5%

KYKLADYRYGREEMLALYVK (GIGYF1(33-52) peptide; sequence looked up)
Kd (EIF4E2 (Homo sapiens, UniProt O60573); binding, isothermal titration calorimetry; peptide; pH 7.0, 20 °C): 360 nM

LN[pY]IDLDLV[dPEG8]LST[pY]ASINFQ (IRS1 1170-1178 and 1219-1228, two pY, dPEG8 linker; two pY, dPEG8 linker; pY = N[C@@H](Cc1ccc(OP(=O)(O)O)cc1)C(=O)O; dPEG8 = dPEG8 linker)
EC50 (PTPN11 1-525 (Homo sapiens, UniProt Q06124); DiFMUP dephosphorylation, activator; peptide): 0.354 µM

IDEYFSEQPLKNLLLSTSEAQIEKCFIIENISTIA (IFNAR1 478-512 E497A (Homo sapiens, UniProt P17181))
apparent Tm reduction (TYK2 23-583 (Homo sapiens, UniProt P29597); differential scanning fluorimetry; peptide): > 5 °C

ANGPT1 (Homo sapiens, UniProt Q15389)
protection from apoptosis (TEK whole (Homo sapiens, UniProt Q02763); staurosporine-induced apoptosis, Cell Death Detection ELISA; human myogenic precursor cells; 500 ng/mL): 51%

UGT1A9 (Homo sapiens, UniProt O60656)
Vmax/Km (COc1cccc(-c2cc(=O)c3ccc(O)cc3o2)c1; steady-state kinetics; pH 7.4, 37 °C): 5 µL/min/mg
